Measured values of several laboratories.
Lines come from different studies, so protocols differ. ± gives the spread as reported.
Nuclear receptor subfamily 2 group C member 2 ligand-binding domain: Nuclear receptor subfamily 2 group C member 2, ligand-binding domain (Homo sapiens, UniProt P49116)
UniProt P49116, sequence (whole entry, looked up): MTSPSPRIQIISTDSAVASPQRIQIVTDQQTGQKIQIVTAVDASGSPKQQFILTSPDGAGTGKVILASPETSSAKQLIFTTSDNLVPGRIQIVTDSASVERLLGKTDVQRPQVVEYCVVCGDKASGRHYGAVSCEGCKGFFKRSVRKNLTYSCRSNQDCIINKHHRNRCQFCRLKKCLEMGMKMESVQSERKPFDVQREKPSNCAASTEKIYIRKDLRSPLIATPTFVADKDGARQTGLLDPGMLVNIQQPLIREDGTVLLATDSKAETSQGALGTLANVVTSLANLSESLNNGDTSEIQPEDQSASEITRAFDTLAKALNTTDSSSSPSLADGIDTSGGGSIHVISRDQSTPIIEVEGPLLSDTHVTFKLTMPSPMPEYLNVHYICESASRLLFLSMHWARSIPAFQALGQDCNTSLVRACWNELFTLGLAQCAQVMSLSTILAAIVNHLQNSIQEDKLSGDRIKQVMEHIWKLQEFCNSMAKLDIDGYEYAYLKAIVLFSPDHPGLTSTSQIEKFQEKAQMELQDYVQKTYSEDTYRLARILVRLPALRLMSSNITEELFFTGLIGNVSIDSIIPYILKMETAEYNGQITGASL
UniProt Q04206, sequence (whole entry, looked up): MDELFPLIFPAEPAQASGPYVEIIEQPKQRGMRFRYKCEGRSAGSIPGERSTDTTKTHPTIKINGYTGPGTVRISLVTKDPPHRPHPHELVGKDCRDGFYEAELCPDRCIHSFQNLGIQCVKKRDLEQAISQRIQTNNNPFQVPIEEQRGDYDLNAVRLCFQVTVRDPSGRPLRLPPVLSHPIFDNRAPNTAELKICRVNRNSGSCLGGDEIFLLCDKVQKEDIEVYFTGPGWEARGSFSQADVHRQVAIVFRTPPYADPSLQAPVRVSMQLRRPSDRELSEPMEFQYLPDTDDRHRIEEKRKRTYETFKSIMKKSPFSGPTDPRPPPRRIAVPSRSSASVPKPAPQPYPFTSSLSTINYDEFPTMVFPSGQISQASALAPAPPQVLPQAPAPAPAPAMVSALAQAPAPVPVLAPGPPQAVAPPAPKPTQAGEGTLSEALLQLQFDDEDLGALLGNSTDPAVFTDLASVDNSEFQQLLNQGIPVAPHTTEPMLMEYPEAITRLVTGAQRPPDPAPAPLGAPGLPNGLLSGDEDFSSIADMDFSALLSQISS
UniProt Q16774, sequence (whole entry, unmodified, looked up): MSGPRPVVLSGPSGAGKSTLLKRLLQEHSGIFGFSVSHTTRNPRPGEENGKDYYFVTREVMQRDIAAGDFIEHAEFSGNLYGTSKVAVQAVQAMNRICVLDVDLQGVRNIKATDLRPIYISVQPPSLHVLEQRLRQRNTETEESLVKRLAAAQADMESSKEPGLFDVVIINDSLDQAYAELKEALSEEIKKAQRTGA
UniProt P02749, sequence (whole entry, unmodified, looked up): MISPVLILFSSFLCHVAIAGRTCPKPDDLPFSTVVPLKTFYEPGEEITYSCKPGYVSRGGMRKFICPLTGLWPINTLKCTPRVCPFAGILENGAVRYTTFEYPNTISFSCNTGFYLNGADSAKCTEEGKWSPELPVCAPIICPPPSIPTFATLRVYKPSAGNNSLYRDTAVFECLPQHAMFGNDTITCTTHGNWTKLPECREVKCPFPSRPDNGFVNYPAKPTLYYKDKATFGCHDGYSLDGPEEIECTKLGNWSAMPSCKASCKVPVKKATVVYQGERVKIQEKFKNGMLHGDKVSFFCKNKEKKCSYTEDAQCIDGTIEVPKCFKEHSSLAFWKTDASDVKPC
UniProt P46100, sequence (whole entry, unmodified, looked up): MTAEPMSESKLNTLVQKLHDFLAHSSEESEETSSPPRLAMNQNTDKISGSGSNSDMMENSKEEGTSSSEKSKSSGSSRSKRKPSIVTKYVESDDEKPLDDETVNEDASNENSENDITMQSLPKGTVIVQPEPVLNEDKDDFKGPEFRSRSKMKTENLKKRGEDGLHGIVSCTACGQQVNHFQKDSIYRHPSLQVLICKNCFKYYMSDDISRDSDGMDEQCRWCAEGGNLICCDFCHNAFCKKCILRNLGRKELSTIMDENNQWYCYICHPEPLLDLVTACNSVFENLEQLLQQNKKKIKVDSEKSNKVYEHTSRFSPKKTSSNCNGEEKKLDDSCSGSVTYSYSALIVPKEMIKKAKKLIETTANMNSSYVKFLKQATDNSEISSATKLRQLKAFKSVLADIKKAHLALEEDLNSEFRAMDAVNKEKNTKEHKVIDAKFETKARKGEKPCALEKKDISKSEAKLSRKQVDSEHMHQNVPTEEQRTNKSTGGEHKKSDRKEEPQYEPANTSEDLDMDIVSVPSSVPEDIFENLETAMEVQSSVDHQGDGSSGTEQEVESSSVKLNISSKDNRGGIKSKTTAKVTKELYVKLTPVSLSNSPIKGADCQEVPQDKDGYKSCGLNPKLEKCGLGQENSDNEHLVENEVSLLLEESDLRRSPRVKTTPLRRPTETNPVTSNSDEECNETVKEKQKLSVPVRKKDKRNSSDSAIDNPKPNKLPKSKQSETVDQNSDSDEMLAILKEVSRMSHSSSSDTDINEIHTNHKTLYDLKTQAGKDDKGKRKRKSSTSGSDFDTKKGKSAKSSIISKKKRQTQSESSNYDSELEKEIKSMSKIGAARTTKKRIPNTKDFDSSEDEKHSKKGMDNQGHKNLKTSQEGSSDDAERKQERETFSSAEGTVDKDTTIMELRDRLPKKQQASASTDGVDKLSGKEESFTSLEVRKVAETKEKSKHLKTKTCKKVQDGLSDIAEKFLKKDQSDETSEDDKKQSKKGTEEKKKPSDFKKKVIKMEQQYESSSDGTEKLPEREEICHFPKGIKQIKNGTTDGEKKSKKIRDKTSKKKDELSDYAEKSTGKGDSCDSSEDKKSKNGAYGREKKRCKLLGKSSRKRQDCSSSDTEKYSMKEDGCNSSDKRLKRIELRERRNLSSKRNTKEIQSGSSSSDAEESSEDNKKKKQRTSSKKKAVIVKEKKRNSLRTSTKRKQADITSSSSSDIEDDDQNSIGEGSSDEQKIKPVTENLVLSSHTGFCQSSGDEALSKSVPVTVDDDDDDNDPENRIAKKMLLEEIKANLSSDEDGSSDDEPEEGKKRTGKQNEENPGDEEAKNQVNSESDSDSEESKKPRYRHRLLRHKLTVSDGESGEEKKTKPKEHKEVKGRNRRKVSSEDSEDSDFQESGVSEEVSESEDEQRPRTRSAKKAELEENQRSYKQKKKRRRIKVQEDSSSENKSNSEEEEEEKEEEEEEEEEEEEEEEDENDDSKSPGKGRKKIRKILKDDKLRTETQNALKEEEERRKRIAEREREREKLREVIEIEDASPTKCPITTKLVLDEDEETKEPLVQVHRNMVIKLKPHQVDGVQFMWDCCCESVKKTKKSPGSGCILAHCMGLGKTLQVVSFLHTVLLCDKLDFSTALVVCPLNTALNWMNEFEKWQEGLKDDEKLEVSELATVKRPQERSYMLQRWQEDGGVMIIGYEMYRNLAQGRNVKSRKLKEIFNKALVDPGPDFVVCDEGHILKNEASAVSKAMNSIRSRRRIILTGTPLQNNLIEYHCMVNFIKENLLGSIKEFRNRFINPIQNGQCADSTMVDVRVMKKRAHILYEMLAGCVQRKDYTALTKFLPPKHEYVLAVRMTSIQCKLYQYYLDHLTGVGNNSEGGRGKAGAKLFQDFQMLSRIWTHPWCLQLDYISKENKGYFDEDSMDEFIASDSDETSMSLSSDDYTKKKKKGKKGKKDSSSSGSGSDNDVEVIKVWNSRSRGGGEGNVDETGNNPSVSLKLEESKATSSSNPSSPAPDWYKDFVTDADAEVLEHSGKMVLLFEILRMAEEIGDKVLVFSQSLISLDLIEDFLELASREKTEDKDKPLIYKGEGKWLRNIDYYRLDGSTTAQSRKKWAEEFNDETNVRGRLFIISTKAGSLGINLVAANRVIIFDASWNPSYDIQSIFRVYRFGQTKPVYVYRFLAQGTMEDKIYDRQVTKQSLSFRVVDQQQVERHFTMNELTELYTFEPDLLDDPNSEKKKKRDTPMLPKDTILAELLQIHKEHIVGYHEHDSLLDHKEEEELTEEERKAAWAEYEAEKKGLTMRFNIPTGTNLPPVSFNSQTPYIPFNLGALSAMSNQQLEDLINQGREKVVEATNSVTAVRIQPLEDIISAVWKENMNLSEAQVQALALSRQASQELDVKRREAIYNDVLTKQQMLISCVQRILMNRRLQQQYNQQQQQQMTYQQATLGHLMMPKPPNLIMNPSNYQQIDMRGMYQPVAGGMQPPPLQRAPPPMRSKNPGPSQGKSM
UniProt P05164, sequence (whole entry, looked up): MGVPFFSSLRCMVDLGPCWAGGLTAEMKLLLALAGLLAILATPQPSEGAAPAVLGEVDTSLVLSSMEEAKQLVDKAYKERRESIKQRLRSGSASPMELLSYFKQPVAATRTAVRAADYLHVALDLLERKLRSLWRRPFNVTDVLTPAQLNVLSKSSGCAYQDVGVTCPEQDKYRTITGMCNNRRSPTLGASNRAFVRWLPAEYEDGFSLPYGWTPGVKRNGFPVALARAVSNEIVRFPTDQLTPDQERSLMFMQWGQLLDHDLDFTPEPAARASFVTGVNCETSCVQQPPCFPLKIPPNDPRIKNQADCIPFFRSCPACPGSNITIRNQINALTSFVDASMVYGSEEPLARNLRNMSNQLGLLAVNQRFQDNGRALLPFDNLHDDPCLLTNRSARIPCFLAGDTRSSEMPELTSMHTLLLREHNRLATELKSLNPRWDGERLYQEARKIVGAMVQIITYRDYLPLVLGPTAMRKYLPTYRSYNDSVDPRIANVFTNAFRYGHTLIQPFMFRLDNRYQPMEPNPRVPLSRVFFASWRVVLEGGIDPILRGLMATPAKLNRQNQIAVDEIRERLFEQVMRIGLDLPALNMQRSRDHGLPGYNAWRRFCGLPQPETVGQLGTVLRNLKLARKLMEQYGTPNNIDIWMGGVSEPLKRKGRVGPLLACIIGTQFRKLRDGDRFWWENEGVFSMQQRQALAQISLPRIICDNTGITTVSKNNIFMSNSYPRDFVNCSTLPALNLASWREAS

Compound = CCCC[C@H]1CN(c2cccc(Cl)c2)C(=O)CN1Cc1cncn1Cc1ccc(Cl)cc1; target or system = Cryptococcus neoformans farnesyltransferase; assay = enzyme activity, inhibitor, fluorescence; setting = with: 1 µM FPP, 0.5 µM dansylated peptide; endpoint = IC50; result = 1.6 ± 0.8 µM
Compound = CC[C@H](C)[C@@H]1NC(=O)[C@H]([C@@H](C)O)NC(=O)[C@@H]2CCCN2C(=O)[C@H](CC(C)C)NC(=O)[C@H](Cc2ccc(O)cc2)NC(=O)CSC[C@@H](C(N)=O)NC(=O)[C@H](CC(C)C)NC(=O)[C@@H]2CCCN2C(=O)[C@H](Cc2c[nH]cn2)NC(=O)[C@H](Cc2c[nH]c3ccccc23)NC(=O)[C@H](CC(C)C)NC(=O)[C@H](Cc2c[nH]cn2)NC(=O)CNC(=O)[C@H](C(C)C)NC(=O)CNC(=O)[C@H]([C@@H](C)O)NC1=O; target or system = VPS35/VPS29 (Homo sapiens, UniProt Q96QK1+Q9UBQ0); assay = binding, isothermal titration calorimetry; setting = 25 °C; endpoint = ΔH; result = -8.7 ± 1.7 kcal/mol
Compound = Cc1cc(=O)oc2cc(NC(=O)CCCCCCC(=O)NO)ccc12; target or system = OCI-Ly1; setting = 0.1 µM, 120 h; endpoint = viability; result = 108%
Compound = CC(=O)N1CCN(c2cc(C=O)ccc2[N+](=O)[O-])CC1; target or system = YWHAG/RELA, phospho-Ser45 p65 peptide (Homo sapiens, UniProt P61981+Q04206); assay = ternary complex formation, stabilizer, fluorescence anisotropy; endpoint = EC50; result = > 1000 µM
Compound = O=C(O)c1ccc(Nc2ncc3c(n2)-c2ccc(Cl)cc2C(c2c(F)cccc2F)=NC3)cc1; target or system = human DCAMKL2(h); assay = kinase activity; setting = 1 µM; endpoint = remaining activity; result = 103%
Compound = C[C@@H]1C[C@H]2[C@@H]3CCC4=CC(=O)C=C[C@]4(C)[C@@]3(Cl)[C@@H](O)C[C@]2(C)[C@@]1(OC(=O)c1ccco1)C(=O)CCl; target or system = Nuclear receptor subfamily 2 group C member 2 ligand-binding domain; assay = SPR imaging; setting = 600 nM; endpoint = koff; result = 4.89e-07 s⁻¹
Compound = Oc1ccc([C@@H]2c3c(O)cc(O)cc3[C@@H]3c4c(cc(O)c5c4[C@@H]2[C@H](c2ccc(O)cc2)[C@H]5c2cc(O)cc4c2[C@@H](c2cc(O)cc(O)c2)[C@H](c2ccc(O)cc2)O4)O[C@H]3c2ccc(O)cc2)cc1; target or system = Pancreatic alpha-amylase (Homo sapiens, UniProt P04746); assay = enzyme activity; setting = 10 µM; endpoint = Vmax; result = 1760 ± 639 µmol/min
Compound = C[C@@H]1C/C=C/C=C/C=C/C=C/[C@H](O[C@@H]2O[C@H](C)[C@@H](O)[C@H](N)[C@@H]2O)C[C@@H]2O[C@](O)(C[C@@H](O)C[C@H]3O[C@@H]3/C=C/C(=O)O1)C[C@H](O)[C@H]2C(=O)O; target or system = Nuclear receptor subfamily 2 group C member 2 ligand-binding domain; assay = SPR imaging; setting = 600 nM; endpoint = koff; result = 4.2e-05 s⁻¹
Compound = CO[C@H]1O[C@H](COS(=O)(=O)O)[C@@H](O[C@@H]2O[C@@H](C(=O)O)[C@@H](O[C@H]3O[C@H](COS(=O)(=O)O)[C@@H](O[C@@H]4O[C@H](C(=O)O)[C@@H](O[C@H]5O[C@H](COS(=O)(=O)O)[C@@H](O)[C@H](O)[C@H]5NS(=O)(=O)O)[C@H](O)[C@H]4O)[C@H](OS(=O)(=O)O)[C@H]3NS(=O)(=O)O)[C@H](O)[C@H]2OS(=O)(=O)O)[C@H](O)[C@H]1NS(=O)(=O)O; target or system = Beta-2-glycoprotein 1, domain V (APOH, Homo sapiens, UniProt P02749, V266L); assay = isothermal titration calorimetry; setting = 298 K, with: 100 mM NaCl; endpoint = binding free energy ΔG; result = -6.59 kcal/mol
Compound = Nc1nc2c(ncn2[C@@H]2O[C@H](COP(=O)(O)OP(=O)(O)O)[C@@H](O)[C@H]2O)c(=O)[nH]1; target or system = GUK1 (Homo sapiens, UniProt Q16774, R137A); assay = binding, ITC; endpoint = ΔG; result = -5.43 kcal/mol
Compound = C[C@@H](c1ccc(-n2cnc3c(N)ncnc32)cc1)N1CCc2nn(C)c(Cc3ccccc3)c2C1=O; target or system = CDK14 (Homo sapiens, UniProt O94921); assay = KINOMEscan; setting = 0.1 µM; scale = baseline: DMSO control; endpoint = remaining binding; result = 100%
Compound = COc1cc(-c2cc(C(C)=O)n3ccccc23)c(OC)cc1Cn1ccnc1; target or system = Bromodomain testis-specific protein, BD1 (BRDT, Homo sapiens, UniProt Q58F21); endpoint = ΔTm; result = 1.3 °C
Compound = C[C@H](N)C(=O)N[C@@H](CCCNC(=N)N)C(=O)N[C@H](C(=O)N[C@@H](CCCCN)C(=O)N[C@@H](CCC(N)=O)C(=O)N[C@H](C(=O)N[C@@H](C)C(=O)N[C@@H](CCCNC(=N)N)C(=O)N[C@@H](C)C(=O)N[C@@H](CO)C(=O)O)[C@@H](C)O)[C@@H](C)O; target or system = Transcriptional regulator ATRX (ATRX, Homo sapiens, UniProt P46100, F284Y/K251R); assay = isothermal titration calorimetry; setting = pH 7.5, 25.0 °C; endpoint = binding free energy; result = -6.24 kcal/mol
Compound = Nc1ncnc2c1ncn2[C@@H]1O[C@H](C[C@@H](N)CC[C@H](N)C(=O)O)[C@@H](O)[C@H]1O; target or system = O-methyltransferase (Sorghum bicolor, UniProt A0A1B6PFV1); assay = isothermal titration calorimetry; setting = concentration not given, apo protein; endpoint = -TΔS of binding; result = 5.43 kcal/mol
Compound = COc1cc2c(NC3CCN(C)CC3)nc(N3CCCN(C)CC3)nc2cc1OCCCN(C)C; target or system = OCI-Ly1; setting = 0.1 µM, 120 h; endpoint = viability; result = 195%
Compound = CC1CCCN(C(=O)c2cc3ncccn3n2)C1 (stereo not drawn); target or system = S-phase kinase-associated protein 1 (SKP1, Homo sapiens, UniProt P63208); assay = binding, affinity selection mass spectrometry; scale = baseline: other proteins in batch; endpoint = fold enrichment; result = 0.837
Compound = CC(C)OCCn1c(=S)[nH]c(=O)c2[nH]ccc21; target or system = Myeloperoxidase (MPO, Homo sapiens, UniProt P05164); assay = H2O2 consumption, inhibitor, H2O2 electrode; setting = 0.68 µM, 0.3 s; endpoint = H2O2 concentration; result = 0.288 µM
Compound = CCS(=O)(=O)N1CC(CC#N)(n2cc(-c3ncnc4[nH]ccc34)cn2)C1; target or system = ORM1 (Homo sapiens, UniProt P02763); assay = van't Hoff; setting = concentration not given, 293-308 K; endpoint = binding enthalpy change; result = -4.44 kcal/mol

For quick reference, copied from above:
Compound = COc1cc(-c2cc(C(C)=O)n3ccccc23)c(OC)cc1Cn1ccnc1; target or system = Bromodomain testis-specific protein, BD1 (BRDT, Homo sapiens, UniProt Q58F21); endpoint = ΔTm; result = 1.3 °C
